Published values pooled from the literature.
Every numbered part comes from another study and shows a few of its results, in no order. Changes are numbered by the printed parent chain.

Block 1 — method: RNA Bind-n-Seq; molecule type: RNA; matrix: in vitro; tested at: 365 nM; baseline: no-protein control; direction: higher = stronger binding; endpoint: RBNS enrichment (R)
Target: RNA binding protein fox-1 homolog 2, RRM domain, GST-SBP tag (RBFOX2, Homo sapiens, UniProt O43251-10, residues 100-194)
Setting: natural RNA segment, single round, ends assumed
Residues (chain): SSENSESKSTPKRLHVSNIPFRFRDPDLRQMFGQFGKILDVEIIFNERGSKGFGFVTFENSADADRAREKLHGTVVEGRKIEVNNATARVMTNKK
GGGAGUUCUACAGUCCGACGAUCAUCUCAAGAUCUUCCAGUGCAUAUACACUCACGUGGGAGAGCACUUCAUAUCCACCAAGCAGACAUAACCUAAGGAAUGUUAGUCCACUGAGCAGUUAAAAAACACUGACUGGAAUUCUCGGGUGCCAA: 0.445
GGGAGUUCUACAGUCCGACGAUCUUGGUUCCAGUGUCAGAAGCAAGCACAGUUAUUGCUGUGUCUUCAGCUCACAGAGCCGCGUCCCUCGAAGCCGUGAGCUACGCCAUUGAUUCUUUAAAAGCCAAGGUGCCUGGAAUUCUCGGGUGCCAA: 0.257
GGGAGUUCUACAGUCCGACGAUCUGUUUUUUCCUCUCUACUACCAAGCUUUAAGACAUUAAAAGAAGUCUAGUGUAUUUGAAUAUUUUAGAGAAAGCUUUAUCAUUUUUUAAGAUGCCAAGAUGCUGCCUACGUGGAAUUCUCGGGUGCCAA: 0.402
GGGAGUUCUACAGUCCGACGAUCGAAGACUGUUCCACACCACAGAAAACCAACUUCAUUUUCUACUCAGAAUUUAUACCAAGAGACUCUUGUAGACGCCGCGGAUGUCCUCUAUAUUGUGAUACAGAAACUGUUGGAAUUCUCGGGUGCCAA: 0.451

Block 2 — method: protein-binding microarray; molecule type: double-stranded DNA, one strand shown; matrix: in vitro; tested at: 2540 nM top; setting: 60-bp whole probe; added: salmon DNA 0.4 mg/ml; baseline: random background probes; direction: higher = stronger binding; endpoint: fitted relative affinity; all sequences stand within: GCCTAGCAC … GTCTTGATTCGCTTGACGCTGCTG
Target: Interferon regulatory factor 3, full length, phosphomimetic (IRF3, Homo sapiens, UniProt Q14653, residues 1-427, S386D/S396D/S398D/S402D/T404D/S405D)
Residues (chain): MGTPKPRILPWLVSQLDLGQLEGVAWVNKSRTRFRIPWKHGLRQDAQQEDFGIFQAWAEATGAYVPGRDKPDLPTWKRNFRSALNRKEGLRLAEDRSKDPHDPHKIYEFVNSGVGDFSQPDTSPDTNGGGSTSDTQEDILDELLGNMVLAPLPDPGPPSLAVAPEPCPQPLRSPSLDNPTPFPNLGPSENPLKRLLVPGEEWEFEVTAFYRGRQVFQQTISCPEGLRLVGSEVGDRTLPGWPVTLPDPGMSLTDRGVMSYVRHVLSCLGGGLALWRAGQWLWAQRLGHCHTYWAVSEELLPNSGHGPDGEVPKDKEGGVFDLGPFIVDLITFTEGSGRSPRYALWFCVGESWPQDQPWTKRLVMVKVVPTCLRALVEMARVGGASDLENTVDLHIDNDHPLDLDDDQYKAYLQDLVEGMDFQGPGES
TCAGATTTATCAAATGTGACTGTGCTA: 0.115 z-score
CAAGTTTCTCCTTTCCAAATGTGCTAG: 3.98 z-score
CCTAGTTTTACTTTCTATGTGTGCTAG: 4.24 z-score
CTGACCTTTTCCTGAGGCAGGTGCTAG: 2.74 z-score
AACTCTTTGCAGATAAATACGTGCTAG: 0.405 z-score

Block 3 — target: CCNB3, cyclin fold, Cln2 fusion (human); method: yeast growth competition, sequencing; matrix: yeast; setting: strong parent motif; baseline: not given; direction: higher = stronger binding; endpoint: normalised enrichment score
Starting sequence: BRCA2 docking peptide (human); PSIKRNLLNEFDR; partner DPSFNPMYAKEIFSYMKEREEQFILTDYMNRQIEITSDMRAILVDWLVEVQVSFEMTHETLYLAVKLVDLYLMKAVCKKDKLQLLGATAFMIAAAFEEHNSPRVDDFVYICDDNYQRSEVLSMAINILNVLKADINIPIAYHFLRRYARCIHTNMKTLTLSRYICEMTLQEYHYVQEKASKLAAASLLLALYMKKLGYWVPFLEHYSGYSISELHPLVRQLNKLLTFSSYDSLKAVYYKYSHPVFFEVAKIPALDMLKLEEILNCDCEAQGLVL
I3E: 0.166
N6C: 0.0132
P1Q: 1.36
E10W: 0.162
K4T: 0.519

Mixed results
PhoQ, residues 284 288 289 292 302 303 TTSMTC
fold induction (PhoP, residues 12 14 15 18 19 NQAHL (Escherichia coli, UniProt P23836); Sort-seq, measured: YFP reporter; E. coli; PhoQ-PhoP variant library, added: 10 µM Mg2+; baseline: high Mg2+ state, higher = stronger signaling): 1.27

For quick reference, copied from above (block 1):
GGGAGUUCUACAGUCCGACGAUCUUGGUUCCAGUGUCAGAAGCAAGCACAGUUAUUGCUGUGUCUUCAGCUCACAGAGCCGCGUCCCUCGAAGCCGUGAGCUACGCCAUUGAUUCUUUAAAAGCCAAGGUGCCUGGAAUUCUCGGGUGCCAA: 0.257
GGGAGUUCUACAGUCCGACGAUCAUCUCAAGAUCUUCCAGUGCAUAUACACUCACGUGGGAGAGCACUUCAUAUCCACCAAGCAGACAUAACCUAAGGAAUGUUAGUCCACUGAGCAGUUAAAAAACACUGACUGGAAUUCUCGGGUGCCAA: 0.445
